Published values pooled from the literature.
Lines come from different studies, so protocols differ. Numbers after ± are the reported error.
KCNA2/KCNA1: KCNA2/KCNA1 (Homo sapiens, UniProt P16389+Q09470)
GRPR: Gastrin-releasing peptide receptor (GRPR, Homo sapiens, UniProt P30550)
Proteasome component C5/PSMB5: Proteasome component C5/PSMB5 (Homo sapiens, UniProt P20618+P28074)

O=C(NCCCN1CCC(Cc2ccccc2)CC1)c1ccc2ccccc2c1  IC50 (SLC6A2 (Homo sapiens, UniProt P23975); transporter uptake, inhibitor, radiometric): 0.15 to 0.76 µM
CN1C[C@@H](c2c[nH]c3cc(Br)ccc23)N(C)C[C@@H]1c1c[nH]c2ccccc12  IC50 (PPP1CA (Oryctolagus cuniculus, UniProt P62139); enzyme activity, inhibitor, fluorescence): ~10 µM
C[C@H](NC(=O)[C@@H](N)CCCNC(=N)N)C(=O)N[C@@H](Cc1c[nH]c2ccccc12)C(N)=O  IC50 (Ephrin type-B receptor 4 (Mus musculus, UniProt P54761); ephrin-B2 binding, inhibitor; 1 h, added: ephrin-B2 AP 0.02 nM): > 100 µM
COc1ccc2c(c1OC)C(C(Cl)(Cl)Cl)N1CCc3cc4c(cc3C1=C2)OCO4 (centres unmarked)  IC50 (Pancreatic alpha-amylase (Homo sapiens, UniProt P04746); enzyme activity, inhibitor): 117 µM
O=C(NCc1cccc(CN2CCCC2=O)c1)NCC(c1ccccc1)c1ccccc1  IC50 (KCNA2/KCNA1; potassium current, inhibitor, automated patch clamp; CHO-K1, concatemer expressing): 2.98 µM
CCNC(=O)[C@H](CC(C)C)NC(=O)[C@H](Cc1c[nH]cn1)NC(=O)CNC(=O)[C@@H](NC(=O)[C@H](C)NC(=O)[C@H](Cc1c[nH]c2ccccc12)NC(=O)[C@H](CCC(N)=O)NC(=O)[C@@H](Cc1ccccc1)NC(=O)[C@H](CC(N)=O)NC(=O)[C@H](CC(=O)O)NC(=O)[C@H](CCCNC(=N)N)NC(=O)CNC(=O)CNC(=O)CNC(=O)C(C)F)C(C)C (some centres unmarked)  IC50 (GRPR; ligand displacement, radioligand): 0.0943 µM
N[C@@H](C(=O)N1CCCC1)C1CCN(c2nccc3c(-c4ncc(Cl)cc4Cl)cccc23)CC1  IC50 (PADI4 (Homo sapiens, UniProt Q9UM07); enzyme activity, fluorescence quenching; added: Ca2+ 0.4 mM): 26 µM
CCCC[C@H](NC(=O)[C@H](Cc1ccccc1)NC(=O)[C@H](Cc1c[nH]cn1)NC(=O)CCNC(=O)[C@@H](NC(=O)[C@H](C)NC(=O)[C@H](Cc1c[nH]c2ccccc12)NC(=O)[C@H](CCC(N)=O)NC(=O)[C@H](N)Cc1ccccc1)C(C)C)C(N)=O  IC50 (GRPR; ligand displacement in cells, radioligand): 4.8e-05 µM
O=C(O)c1cc(N2N=C(C(F)(F)F)/C(=C\c3ccc(-c4ccccc4)o3)C2=O)ccc1Cl  IC50 (ERO1-like protein alpha (Homo sapiens, UniProt Q96HE7, C104A/C131A/C166A); enzyme activity, inhibitor, fluorescence): 16.5 µM
CC(=O)C12NC(C)(C)CC1(C)C(=O)C1=C2c2c(c3c4n2C(C)(C)CC2=C4C4(CC(C)(C)NC(C)(C4)C2=O)CC3(C)C)C(=O)C(C)(C)N1 (single isomer, unassigned; (+))  IC50 (Voltage-dependent P/Q-type calcium channel subunit alpha-1A (Homo sapiens, UniProt O00555); ion current, inhibitor, patch clamp): 10.4 µM
C[C@H](OP(=O)(O)O)[C@H]1NC(=O)[C@H](CCCNC(=N)N)NC(=O)[C@@H](CCCNC(=N)N)NC(=O)[C@H](Cc2c[nH]c3ccccc23)NC(=O)[C@H](Cc2ccc(F)cc2)NC(=O)[C@H](Cc2ccc3ccccc3c2)NC(=O)[C@@H]2CCCCN2C1=O  IC50 (PIN1 (Homo sapiens, UniProt Q13526); fluorescence anisotropy competition; added: FITC-labelled probe): 1.81 ± 0.56 µM
Cn1cc(-c2cc(N3CCCCS3(=O)=O)ccc2N[C@H]2CC[C@H](C)CC2)c2cc[nH]c2c1=O (stereo in doubt)  IC50 (Bromodomain-containing protein 4, BD1 (BRD4, Homo sapiens, UniProt O60885); cell-free assay, TR-FRET): 0.00099 µM
N#Cc1c(C(F)(F)F)cc(-c2ccc(Cl)cc2)nc1SCC(=O)N1CCOCC1  IC50 (TAAR1 (Homo sapiens, UniProt Q96RJ0)): 1.12 µM
Cc1ccc(CNC(=O)[C@H](CCc2ccccc2)NC(=O)[C@H](CC(=O)NCC(C)(C)C)NC(=O)c2ccc(OCc3ccccc3)cc2)cc1  IC50 (Proteasome component C5/PSMB5; inhibitor): 0.0068 µM
CC(C)C[C@@H](N)C(=O)N[C@H](CC(=O)O)C(=O)N[C@@H](C(=O)N[C@H](Cc1ccccc1)C(=O)N[C@H](CC(C)C)C(=O)N[C@H](Cc1ccc(O)cc1)C(=O)N[C@H](CO)C(=O)N[C@H](CCC(=O)O)C(=O)O)C(C)C  IC50 (Programmed cell death 1 ligand 1, with PD-1 (Cd274, Mus musculus, UniProt Q9EP73); PD-1/PD-L1 binding, inhibitor, flow cytometry; CHO-K1 expressing mouse PD-1; added: mouse PD-L1-Fc): 55.64 ± 0.14 µM
CC1CC(Nc2ncnc3nc[nH]c23)CC(C)(C)C1 (centres unmarked)  IC50 (Chemotaxis protein CheA (Escherichia coli, UniProt P07363); enzyme activity, inhibitor, radiometric): 413 µM
O=C(O)C(=O)N[C@@H](CS)C(=O)O  IC50 (KDM4E (Homo sapiens, UniProt B2RXH2); enzyme activity, inhibitor): > 1000 µM
CC(C)NC(=O)c1ccc2nc(-c3ccccc3)cn2c1  IC50 (Protein ENL (MLLT1, Homo sapiens, UniProt Q03111)): 7 µM
N=C(NCCCCC(N)C(N)=O)NCCSCC1OC(n2cnc3c(N)ncnc32)C(O)C1O (centres unmarked)  IC50 (SETD7 (Homo sapiens, UniProt Q8WTS6); enzyme activity, inhibitor, fluorescence): > 100 µM
COC(=O)[C@H](Cc1c[nH]c2ccccc12)NCc1cc2ccccc2nc1OC  IC50 (ATP synthase subunit c, whole ATP synthase complex (atpE, Pseudomonas aeruginosa, UniProt Q9HT15); ATP synthesis, inhibitor; Pseudomonas aeruginosa, inverted membrane vesicles; 10 min, added: NADH): 43.7 µM
COC(=O)N[C@H]1CC[C@@H](Nc2cc(NCc3ccccc3F)n3ncc(C(C)C)c3n2)CC1  IC50 (Cyclin-dependent kinase 7, with cyclin H, MAT1 (CDK7, Homo sapiens, UniProt P50613); enzyme activity, inhibitor, luciferase kinase): 0.17 µM
CCCCCCCCCCCCCCCC(=O)OCCN1CCN(c2cc(Nc3ncc(C(=O)Nc4c(C)cccc4Cl)s3)nc(C)n2)CC1  IC50 (SRC (Homo sapiens, UniProt P12931); enzyme activity, inhibitor): 0.075 µM
CNC(=O)C1CCN(c2cc(C)c(F)cc2NC(=O)c2ccc(-c3cc(O)ccc3C)c(C)c2)CC1  IC50 (EPHA5 (Homo sapiens, UniProt P54756); target engagement in cells, BRET): 0.0527 µM
O=c1c(/C=N/NC(=S)N/N=C/c2cc(Cl)ccc2O)coc2ccccc12  IC50 (SOD1 (Homo sapiens, UniProt P00441); enzyme activity, inhibitor; HeLa; 24 h): 0.18 µM
Cc1cccc(C)c1NC(=O)CC(C)NCc1cccc2ccccc12 (centres unmarked)  IC50 (SCN4A (Homo sapiens, UniProt P35499, F1586C); phasic block of sodium current, whole-cell patch clamp; HEK293; 10 Hz stimulation): 14 ± 2 µM
Cc1cc2c(NC(=O)N[C@@H]3CC(C)(C)Oc4cc(C(F)(F)F)ccc43)c(C)ccc2cn1  IC50 (TRPV1 (Homo sapiens, UniProt Q8NER1); acid-evoked calcium influx, antagonist; HEK293, human; pH 5): 0.107 ± 0.0183 µM
CSCC[C@H](NC(=O)[C@H](CC(C)C)NC(=O)[C@H](Cc1c[nH]cn1)NC(=O)[C@@H](C)NC(=O)[C@@H](NC(=O)[C@H](C)NC(=O)[C@H](Cc1c[nH]c2ccccc12)NC(=O)[C@H](CCC(N)=O)NC(=O)[C@H](CC(N)=O)NC(=O)CNC(=O)[C@H](CC(C)C)NC(=O)[C@H](CCCNC(=N)N)NC(=O)[C@H](CCC(N)=O)NC(=O)[C@@H]1CCC(=O)N1)C(C)C)C(N)=O  IC50 (GRPR; ligand displacement in cells, radioligand): 0.00054 µM
O=C(c1cccc(S(=O)(=O)N2CCc3ccccc3C2)c1)N1CCC(OCc2ccccc2)CC1  IC50 (KCNA2/KCNA1; potassium current, inhibitor, automated patch clamp; CHO-K1, concatemer expressing): 0.58 µM
CC(C)C[C@@H](CN[C@@H](Cc1ccc(Cl)cc1)C(N)=O)NC(=O)[C@H](Cc1c[nH]cn1)NC(=O)CNC(=O)[C@@H](NC(=O)[C@H](C)NC(=O)[C@H](Cc1c[nH]c2ccccc12)NC(=O)[C@H](CCC(N)=O)NC(=O)[C@H](N)Cc1ccccc1)C(C)C  IC50 (GRPR; binding, radioligand binding; HuTu80): 0.00123 ± 9e-05 µM
O=C(NO)c1ccc(Cn2sc3ccccc3c2=O)cc1  IC50 (HDAC11 (Homo sapiens, UniProt Q96DB2); enzyme activity, inhibitor): > 10 µM
O=C(NCCCN1CCC(Cc2ccccc2)CC1)c1ccc2cc(Br)ccc2c1  IC50 (SLC6A3 (Homo sapiens, UniProt Q01959); transporter uptake, inhibitor, radiometric): > 10 µM
C=C1C[C@@]2(C(=O)OC)C=C(C(=O)Nc3cccc(C(=O)Nc4ccc(Nc5nccc(-c6cccnc6)n5)c(C)c4)c3)C(=O)[C@@H]1C2  IC50 (MAPK8 (Homo sapiens, UniProt P45983); kinase activity, inhibitor; added: GSH 10 mM): 0.128 ± 0.003 µM
C=CC(=O)N1CCc2ccc(-n3c(=O)ccc4cnc5ccc(-c6cnn(C)c6)cc5c43)cc21  IC50 (CSK (Homo sapiens, UniProt P41240); enzyme activity, inhibitor): > 10 µM
O=C(NCCCCn1ccc2ccc(F)cc21)OC(C(F)(F)F)C(F)(F)F  IC50 (Faah (Rattus norvegicus, UniProt P97612); enzyme activity, inhibitor): 2.6 µM
Cc1ccc(CNC(=O)[C@@H](NC(=O)[C@H](CCc2ccccc2)NC(=O)[C@H](CCc2ccccc2)NCc2cnccn2)C(C)C)cc1  IC50 (Proteasome component C5/PSMB5; β5 activity, inhibitor; added: Suc-LLVY-AMC, PA28α-activated): 2.09 µM
CC(C)=CCN=C(N)NCCC[C@@H](NC(=O)CCCc1ccc(O)cc1)C(=O)N[C@@H](Cc1ccccc1)C(O)CC(=O)N[C@@H](Cc1ccc(O)cc1)C(=O)O (stereo in doubt)  IC50 (ADAM10 (Homo sapiens, UniProt O14672); enzyme activity, inhibitor): > 100 µM
CN(C)c1ccc2c(c1)C(=O)N(CCS)C2=O  IC50 (VIM-2 (Escherichia coli, UniProt Q5U7L7); enzyme activity, inhibitor; pH 7): 0.24 µM
CC(C)C[C@H](NC(=O)OCc1cccc(Cl)c1)C(=O)N[C@H](C=O)C[C@H]1CCNC1=O  IC50 (Genome polyprotein, 3C protease (rhinovirus B14, UniProt P03303); 3C protease activity, inhibitor, FRET): 0.2 ± 0.03 µM
O=C1Nc2cc(Cl)ccc2/C1=C\c1cccc(Cl)c1Cl  IC50 (alpha-amylase; inhibitor; added: starch): 42.4 µM
NS(=O)(=O)c1ccc(-n2nc(C(F)(F)F)cc2-c2ccc(F)cc2F)cc1  IC50 (Prostaglandin G/H synthase 1 (Canis lupus familiaris, UniProt Q8HZR1); TXB2 formation, inhibitor; clotting dog whole blood; 1 h, 37 °C): 50.8 µM
O=C(CCCCC1CCSS1)NCCC(=O)NC(Cc1cnc[nH]1)C(=O)O (racemic)  IC50 (Trpa1 (Mus musculus, UniProt Q8BLA8); ion current, patch clamp): 10.3 µM

Excerpt of the above:
CC(C)=CCN=C(N)NCCC[C@@H](NC(=O)CCCc1ccc(O)cc1)C(=O)N[C@@H](Cc1ccccc1)C(O)CC(=O)N[C@@H](Cc1ccc(O)cc1)C(=O)O (stereo in doubt)  IC50 (ADAM10 (Homo sapiens, UniProt O14672); enzyme activity, inhibitor): > 100 µM
C=CC(=O)N1CCc2ccc(-n3c(=O)ccc4cnc5ccc(-c6cnn(C)c6)cc5c43)cc21  IC50 (CSK (Homo sapiens, UniProt P41240); enzyme activity, inhibitor): > 10 µM
CC(=O)C12NC(C)(C)CC1(C)C(=O)C1=C2c2c(c3c4n2C(C)(C)CC2=C4C4(CC(C)(C)NC(C)(C4)C2=O)CC3(C)C)C(=O)C(C)(C)N1 (single isomer, unassigned; (+))  IC50 (Voltage-dependent P/Q-type calcium channel subunit alpha-1A (Homo sapiens, UniProt O00555); ion current, inhibitor, patch clamp): 10.4 µM
